Assay results from different studies.
Parts stem from different laboratories: compare values within a part only. Changes are numbered by the printed parent chain.
UniProt Q9UQM7, sequence (whole entry, looked up): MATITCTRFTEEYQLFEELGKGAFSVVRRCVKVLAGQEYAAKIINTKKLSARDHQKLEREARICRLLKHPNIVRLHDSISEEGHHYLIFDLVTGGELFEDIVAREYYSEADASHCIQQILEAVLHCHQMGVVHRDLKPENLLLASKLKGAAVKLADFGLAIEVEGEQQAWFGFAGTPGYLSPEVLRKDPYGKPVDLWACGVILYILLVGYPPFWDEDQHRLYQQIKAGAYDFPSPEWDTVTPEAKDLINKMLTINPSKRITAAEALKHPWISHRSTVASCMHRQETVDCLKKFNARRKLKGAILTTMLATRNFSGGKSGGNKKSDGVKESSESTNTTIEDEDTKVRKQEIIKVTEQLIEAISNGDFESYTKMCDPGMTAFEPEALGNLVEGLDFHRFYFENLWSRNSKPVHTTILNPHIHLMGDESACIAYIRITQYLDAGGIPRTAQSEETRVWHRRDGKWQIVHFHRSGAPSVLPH

Sample 1 — read-out: binding; technique: phage display NGS; form: peptide; setting: panning round 2; relative to: input library
Target: UDP-N-acetylglucosamine--peptide N-acetylglucosaminyltransferase 110 kDa subunit (OGT, Homo sapiens, UniProt O15294)
UniProt O15294, sequence (whole entry, looked up): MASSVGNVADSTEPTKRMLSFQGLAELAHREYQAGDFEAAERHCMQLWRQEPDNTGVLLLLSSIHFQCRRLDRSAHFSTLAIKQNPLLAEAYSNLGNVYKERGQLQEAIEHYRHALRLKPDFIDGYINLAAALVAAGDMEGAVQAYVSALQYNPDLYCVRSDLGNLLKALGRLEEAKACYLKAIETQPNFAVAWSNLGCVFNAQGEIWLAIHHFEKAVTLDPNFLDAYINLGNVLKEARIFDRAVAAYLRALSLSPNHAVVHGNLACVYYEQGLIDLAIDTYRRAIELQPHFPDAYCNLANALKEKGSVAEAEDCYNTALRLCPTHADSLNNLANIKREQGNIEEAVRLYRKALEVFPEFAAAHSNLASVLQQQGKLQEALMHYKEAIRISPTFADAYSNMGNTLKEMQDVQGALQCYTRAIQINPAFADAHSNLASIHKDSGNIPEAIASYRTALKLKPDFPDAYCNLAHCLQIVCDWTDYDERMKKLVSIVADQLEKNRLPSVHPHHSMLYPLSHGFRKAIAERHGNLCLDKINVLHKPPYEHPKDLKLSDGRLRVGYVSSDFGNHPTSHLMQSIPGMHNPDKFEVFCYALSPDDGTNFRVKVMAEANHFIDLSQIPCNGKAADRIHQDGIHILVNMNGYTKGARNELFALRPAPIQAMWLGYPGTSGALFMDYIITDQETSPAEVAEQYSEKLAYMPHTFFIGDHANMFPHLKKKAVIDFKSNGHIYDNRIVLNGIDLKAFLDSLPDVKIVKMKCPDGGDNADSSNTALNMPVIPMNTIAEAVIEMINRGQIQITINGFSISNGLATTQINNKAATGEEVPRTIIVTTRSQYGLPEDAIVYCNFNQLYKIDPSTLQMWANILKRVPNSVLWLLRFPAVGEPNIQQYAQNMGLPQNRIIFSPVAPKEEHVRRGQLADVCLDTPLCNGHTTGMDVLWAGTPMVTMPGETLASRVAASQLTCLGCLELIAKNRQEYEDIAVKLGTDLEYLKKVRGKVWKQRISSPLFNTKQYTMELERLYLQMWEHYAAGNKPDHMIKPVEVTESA
| Molecule | minimum log2 enrichment ratio |
| --- | --- |
| VKTYEPFYLIDMNRQ | 1.88 |
| SMLSHYHEVMRHHRV | 2.25 |
| RDIMPDYHPIYQIRI | 4.54 |
| GMTHQYHLHHDSGFQ | 2.63 |
| IVGAIFPPKYLITYA | 4.67 |
| YFGRVTFPPKYQIVF | 4.85 |
| HDPYHYRYSPQHNSY | 2.63 |
| HTQPMEHNFHHYHF | 2.46 |

Sample 2 — target: tungstate, free oxyanion; technique: microfluidic competitive inhibition; matrix: in vitro, cell-free expressed; tested at: not given; direction: lower = stronger binding
Setting: derived from inhibition constants, unchanged parent 2230 nM
Starting sequence: PafA, mature enzyme, eGFP fusion (Elizabethkingia meningoseptica, UniProt Q9KJX5); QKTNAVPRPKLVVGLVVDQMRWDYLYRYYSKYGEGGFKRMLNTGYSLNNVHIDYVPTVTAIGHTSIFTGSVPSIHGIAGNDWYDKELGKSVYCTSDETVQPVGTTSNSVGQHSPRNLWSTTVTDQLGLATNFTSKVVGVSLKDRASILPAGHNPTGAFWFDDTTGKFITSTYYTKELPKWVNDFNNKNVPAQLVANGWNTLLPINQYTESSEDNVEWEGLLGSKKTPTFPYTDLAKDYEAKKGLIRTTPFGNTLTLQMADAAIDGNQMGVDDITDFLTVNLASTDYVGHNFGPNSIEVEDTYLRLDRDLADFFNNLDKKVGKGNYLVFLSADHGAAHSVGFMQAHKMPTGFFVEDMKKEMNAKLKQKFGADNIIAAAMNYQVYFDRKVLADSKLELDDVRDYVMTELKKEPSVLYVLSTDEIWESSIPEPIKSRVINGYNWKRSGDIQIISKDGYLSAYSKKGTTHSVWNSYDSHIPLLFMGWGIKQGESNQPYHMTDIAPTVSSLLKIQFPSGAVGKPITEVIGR
| Substitution | oxyanion analog dissociation constant [nM] |
| --- | --- |
| K486V | 3190 |
| N324V | 2680 |
| Y472G | 1040 |
| V58A | 4410 |
| D398G | 2140 |
| L329G | 2060 |
| S471V | 2310 |
| Y302G | 2420 |

Sample 3 — target: CCND3, cyclin fold, Cln2 fusion (human); technique: yeast growth competition, sequencing; matrix: yeast; setting: weak parent motif; relative to: not given; direction: higher = stronger binding
Starting sequence: viral docking peptide; PTARRRLLHDLDT; partner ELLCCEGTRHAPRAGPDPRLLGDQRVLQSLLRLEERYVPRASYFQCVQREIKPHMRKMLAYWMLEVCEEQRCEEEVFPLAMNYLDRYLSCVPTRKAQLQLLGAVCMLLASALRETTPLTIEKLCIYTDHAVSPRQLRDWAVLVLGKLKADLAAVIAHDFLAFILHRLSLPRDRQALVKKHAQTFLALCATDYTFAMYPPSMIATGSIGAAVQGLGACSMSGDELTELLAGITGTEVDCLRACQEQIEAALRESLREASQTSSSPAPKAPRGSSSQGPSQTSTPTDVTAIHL
| Substitution | normalised enrichment score |
| --- | --- |
| T2A | 0.081 |
| H9F | 0.51 |
| L8F | 0.423 |
| L7A | 0.0726 |
| R5A R6A L7A L8A | 0.173 |
| D10A | 0.0806 |
| R5K H9F | -0.064 |
| H9A | 0.125 |

Single results of other studies
| Structure (SMILES) | target | test | setting | quantity | value |
| --- | --- | --- | --- | --- | --- |
| COc1cc2c3c(c1OC)-c1ccccc1C[C@H]3[N+](C)(C)CC2 | Calcium/calmodulin-dependent protein kinase type II subunit alpha (CAMK2A, Homo sapiens, UniProt Q9UQM7) | enzyme activity, inhibitor | 10 µM | inhibition | 10% |

Repeated from above (sample 1):
| Molecule | minimum log2 enrichment ratio |
| --- | --- |
| IVGAIFPPKYLITYA | 4.67 |
| YFGRVTFPPKYQIVF | 4.85 |
| HDPYHYRYSPQHNSY | 2.63 |
